Measured values gathered from unrelated publications.
Each numbered part is a random draw from the data of one study; scales do not carry over between parts. Substitutions count along the parent as printed.
Sequence of UniProt Q9NY57 (whole entry, looked up): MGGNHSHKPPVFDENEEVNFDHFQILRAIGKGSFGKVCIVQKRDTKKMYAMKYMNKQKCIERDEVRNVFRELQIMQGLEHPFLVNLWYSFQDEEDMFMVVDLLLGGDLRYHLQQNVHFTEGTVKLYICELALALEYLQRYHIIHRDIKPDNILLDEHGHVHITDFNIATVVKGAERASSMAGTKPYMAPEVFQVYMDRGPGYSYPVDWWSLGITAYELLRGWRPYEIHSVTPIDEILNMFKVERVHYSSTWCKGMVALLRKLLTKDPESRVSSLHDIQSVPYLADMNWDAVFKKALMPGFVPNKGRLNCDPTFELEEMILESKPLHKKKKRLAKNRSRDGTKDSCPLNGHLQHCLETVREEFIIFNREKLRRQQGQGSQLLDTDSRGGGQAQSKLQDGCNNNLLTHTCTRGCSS
Sequence of UniProt Q9Y3S1 (whole entry, looked up): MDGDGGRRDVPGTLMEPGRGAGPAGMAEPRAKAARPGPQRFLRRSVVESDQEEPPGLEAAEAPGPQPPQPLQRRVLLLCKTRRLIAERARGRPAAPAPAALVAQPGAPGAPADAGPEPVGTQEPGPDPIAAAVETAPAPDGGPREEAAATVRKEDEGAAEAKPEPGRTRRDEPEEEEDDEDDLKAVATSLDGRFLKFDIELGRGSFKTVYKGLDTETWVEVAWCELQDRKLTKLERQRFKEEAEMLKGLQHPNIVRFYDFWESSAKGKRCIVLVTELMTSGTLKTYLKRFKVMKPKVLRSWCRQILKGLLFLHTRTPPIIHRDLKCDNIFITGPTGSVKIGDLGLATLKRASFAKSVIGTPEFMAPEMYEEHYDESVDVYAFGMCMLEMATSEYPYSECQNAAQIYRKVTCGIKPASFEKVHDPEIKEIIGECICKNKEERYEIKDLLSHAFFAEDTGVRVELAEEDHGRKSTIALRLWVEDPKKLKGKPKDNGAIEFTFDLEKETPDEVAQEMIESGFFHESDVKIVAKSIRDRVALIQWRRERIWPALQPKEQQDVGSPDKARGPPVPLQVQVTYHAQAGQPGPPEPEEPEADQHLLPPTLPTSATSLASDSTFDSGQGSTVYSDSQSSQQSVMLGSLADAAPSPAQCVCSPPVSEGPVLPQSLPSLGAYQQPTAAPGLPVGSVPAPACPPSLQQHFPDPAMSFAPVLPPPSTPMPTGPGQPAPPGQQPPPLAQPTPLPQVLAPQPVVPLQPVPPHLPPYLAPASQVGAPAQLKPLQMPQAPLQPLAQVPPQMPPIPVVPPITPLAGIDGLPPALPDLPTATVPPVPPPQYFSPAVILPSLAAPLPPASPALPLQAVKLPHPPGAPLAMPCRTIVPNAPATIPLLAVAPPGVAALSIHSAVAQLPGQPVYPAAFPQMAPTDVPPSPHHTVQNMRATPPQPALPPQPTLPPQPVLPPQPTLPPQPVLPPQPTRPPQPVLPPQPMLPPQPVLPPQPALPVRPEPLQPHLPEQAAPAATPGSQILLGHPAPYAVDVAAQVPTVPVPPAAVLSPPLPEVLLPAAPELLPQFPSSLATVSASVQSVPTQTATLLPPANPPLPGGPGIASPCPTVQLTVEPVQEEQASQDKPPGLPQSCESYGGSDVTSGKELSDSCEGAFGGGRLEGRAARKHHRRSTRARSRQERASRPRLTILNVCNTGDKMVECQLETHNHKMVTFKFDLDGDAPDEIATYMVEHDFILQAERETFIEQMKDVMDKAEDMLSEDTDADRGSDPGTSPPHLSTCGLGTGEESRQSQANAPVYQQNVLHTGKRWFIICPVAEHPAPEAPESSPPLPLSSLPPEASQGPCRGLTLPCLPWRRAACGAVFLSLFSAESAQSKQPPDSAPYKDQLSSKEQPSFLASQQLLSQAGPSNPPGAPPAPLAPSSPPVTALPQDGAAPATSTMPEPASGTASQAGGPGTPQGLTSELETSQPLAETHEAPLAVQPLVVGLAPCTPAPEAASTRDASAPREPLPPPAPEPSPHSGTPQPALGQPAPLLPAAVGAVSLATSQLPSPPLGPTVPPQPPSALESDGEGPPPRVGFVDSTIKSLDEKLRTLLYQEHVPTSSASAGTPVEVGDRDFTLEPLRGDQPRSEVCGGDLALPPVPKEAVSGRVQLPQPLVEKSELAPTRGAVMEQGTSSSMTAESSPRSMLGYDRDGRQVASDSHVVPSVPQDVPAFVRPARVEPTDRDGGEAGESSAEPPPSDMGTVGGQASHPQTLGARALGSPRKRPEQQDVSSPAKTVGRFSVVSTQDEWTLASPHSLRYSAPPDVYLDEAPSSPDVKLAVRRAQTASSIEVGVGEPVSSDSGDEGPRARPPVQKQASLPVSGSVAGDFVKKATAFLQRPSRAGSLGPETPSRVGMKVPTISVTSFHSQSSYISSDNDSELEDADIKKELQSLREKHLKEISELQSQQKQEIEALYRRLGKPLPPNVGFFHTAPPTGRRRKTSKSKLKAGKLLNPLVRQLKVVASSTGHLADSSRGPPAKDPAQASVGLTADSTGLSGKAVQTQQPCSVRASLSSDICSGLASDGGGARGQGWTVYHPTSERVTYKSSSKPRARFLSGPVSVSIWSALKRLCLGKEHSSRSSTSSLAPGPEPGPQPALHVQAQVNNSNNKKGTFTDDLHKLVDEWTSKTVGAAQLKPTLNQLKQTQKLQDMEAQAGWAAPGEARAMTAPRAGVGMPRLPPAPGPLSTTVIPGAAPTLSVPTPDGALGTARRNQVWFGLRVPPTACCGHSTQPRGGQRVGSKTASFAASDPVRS

Set 1
Target: CCNB2, cyclin fold, Cln2 fusion (human)
Technique: yeast growth competition, sequencing
Medium: yeast
Notes: weak parent motif
Reference: not given
Reading: higher = stronger binding
Quantity: normalised enrichment score
Parent: viral docking peptide; KGVKRKLFAEDSS
R5C: 0.948
A9C: 0.812
S12I: 1.25
V3H: 0.892
K4W: 0.0996
V3R: 0.421
V3G: -0.096
E10S: 0.538

Set 2
Target: HLA class I histocompatibility antigen, A alpha chain, allele A*80:01 (Homo sapiens, UniProt P04439)
Observed: peptide-MHC binding
Molecule type: peptide
Concentration: concentration not given
Quantity: binding
TMGPHPAGV: inactive
GMSWITQGL: inactive
RNNDPTLPY: inactive
QLFPELECF: inactive
KQLPPLAAW: inactive
NSSYWRQGY: inactive
LEARVNLSV: inactive
DLEKYNLAF: inactive

Other studies, line by line
Observed: cell-free assay
O=C(NCc1ncc(C(F)(F)F)cc1Cl)c1ccc2c(c1)C1(CCS(=O)(=O)CC1)[C@@H](C1CC1)N2S(=O)(=O)c1ccc(F)cc1
remaining binding (Serine/threonine-protein kinase 32B (STK32B, Homo sapiens, UniProt Q9NY57); competition with immobilised ligand; 1 µM): 96%

O=c1[nH]c2ccccc2n1C1CCN(Cc2ccc(-c3[nH]c4cc5ncnc5cc4nc3-c3ccccc3)cc2)CC1
remaining signal (Serine/threonine-protein kinase WNK2 (WNK2, Homo sapiens, UniProt Q9Y3S1); 0.5 µM): 115%
